Results from different studies.
Values joined by “and” are separate records of one study, mostly repeats; a detail may differ.
Target: Mitogen-activated protein kinase kinase kinase kinase 3 (MAP4K3, Homo sapiens, UniProt Q8IVH8)

SMILES	assay	system	setting	scale	quantity	value
CC(C)=CC1OC(C)(C)C2C=C3C(=O)C(Cl)=CC(O)C3C3C(O)C4OC4C(=O)C132 (stereo not drawn)	cell-free assay, competition with immobilised ligand		10 µM		remaining binding	96%
CNC(=O)C1CCN(c2cc(C)c(F)cc2NC(=O)c2ccc(-c3cc(O)ccc3C)c(C)c2)CC1	binding, competition with immobilised ligand		1 µM		remaining binding	96%
C=CC(=O)Nc1cc(-c2nn(C3CCN(CCNC(=O)[C@H](C)CCC45CC6CC(CC(C6)C4)C5)CC3)c3ncnc(N)c23)ccc1Oc1ccccc1	inhibitor, KiNativ profiling	biochemical	2 µM		inhibition	5.2%
CNC1C[S+]2CC[S+]3CC[S+](C1)[Ru-4]321([N]=C=S)[n]2c3ccc(OC)cc3c3c4c(c5cc(F)c[n+]1c5c32)C(=O)NC4=O (stereo not drawn)	KinomeScan		0.1 µM	baseline: untreated	remaining binding	100%
CNC(=O)C[C@H](Cc1ccc(C#N)cc1)NC(=O)c1cc(-c2ccc(CN[C@H](C)c3ccc(C)cc3)o2)ccc1Cl	enzyme activity, inhibitor		1 µM		activity vs control	102%
N[C@H]1CC[C@H](Nc2nccc(-c3cccnc3Oc3ccc(NC(=O)NC4CC4)c4ccccc34)n2)CC1	kinobead competition pulldown	HEK293/HCT116 lysate mixture	10 µM, 1 h, 4 °C	lower = stronger competition	log2 LFQ intensity	25.9 and 25.8 and 26
CCn1cc(C(=O)O)c(=O)c2c(N)c(F)c(NC3CCCCC3)cc21	kinase activity		0.1 µM, added: ATP at Km		inhibition	-7.5%
COc1c(Cl)cccc1Nc1c(-c2ccncc2C#C[C@@]2(C)CCCN2C(=O)/C=C/CN(C)C)[nH]c2c1C(=O)NCC2	binding, competition with immobilised ligand		3 µM		remaining binding	95%
C=CC(=O)N1Cc2nc(-c3cc(-c4cc(Cl)cnc4Cl)c(F)cc3F)n(-c3ccncn3)c2C1	cell-free assay, inhibitor		1 µM		inhibition	-4%
COc1cc(Nc2nc(C)cc(-c3cnn4nc(OC)ccc34)n2)cc(C(F)(F)F)c1	inhibitor		1 µM	baseline: control	remaining activity	100%
CCN1CCN(Cc2ccc(C(=O)Nc3ccc(C)c(NCc4cnc5[nH]ccc5c4OC)c3)cc2C(F)(F)F)CC1	binding, competition with immobilised ligand		1 µM		remaining binding	33%
Cc1ccc(-c2c(/C=C(\C#N)C(=O)NC(C)C)n(CCCO)c3ncnc(N)c23)cc1	cell-free assay, competition with immobilised ligand		1 µM		remaining binding	100%
CS(=O)(=O)Nc1cccc(-c2csc3cnc(Nc4ccc(N5CCN(CCCCCOc6cccc7c6C(=O)N(C6CCC(=O)NC6=O)C7=O)CC5)cc4)nc23)c1 (stereo not drawn)	probe labelling, inhibitor, KiNativ chemoproteomics	MOLT-4	1 µM		inhibition	16.8%
CN1CCN(Cc2ccc(-c3ccc(CO[C@H]4CCC[C@@H]4NC(=O)c4cc(-c5cnn(C)c5)cnc4N)cc3)cc2)CC1	enzyme activity, inhibitor		0.1 µM		inhibition	8%
C=CC(=O)N1CCc2ccc(-n3c(=O)ccc4cnc5ccc(-c6cnn(C)c6)cc5c43)cc21	KINOMEscan		1 µM	baseline: DMSO control	remaining binding	94%
COc1cc(Nc2nccc(-c3cnn4nc(OC)ccc34)n2)cc(C(F)(F)F)c1	binding, competition with immobilised ligand		1 µM		remaining binding	98%
CN1CC[C@@H](COc2cnc(C#N)cc2-c2ccn3nc(NC(=O)C4CC4)cc3c2)C1	enzyme activity, inhibitor		1 µM		inhibition	11%
O=C(Cc1ccc(OCc2ccccc2)cc1)NC1(C(=O)O)CCN(C(=O)c2ccc(-c3cccc(Cl)c3)cc2)CC1	enzyme activity, inhibitor		10 µM		activity vs control	100%
Nc1ncc2c(n1)-c1c([nH]c3ccc(C4=CCOCC4)cc13)CCC2	binding, competition with immobilised ligand		1 µM		remaining binding	100%
Cc1cnc2nc1Nc1cccc(c1)COC/C=C/COCc1cc(ccc1OCCN1CCOCC1)N2			concentration not given		percent of control	88%
C=CC(=O)N1CCCC(n2c(=O)c3ncccc3n(Cc3ccc(Oc4ccccc4)cc3)c2=O)C1 (stereo not drawn)	cell-free assay, competition with immobilised ligand		1 µM		remaining binding	94%

For quick reference, copied from above:
SMILES	assay	system	setting	scale	quantity	value
CN1CC[C@@H](COc2cnc(C#N)cc2-c2ccn3nc(NC(=O)C4CC4)cc3c2)C1	enzyme activity, inhibitor		1 µM		inhibition	11%
C=CC(=O)N1CCc2ccc(-n3c(=O)ccc4cnc5ccc(-c6cnn(C)c6)cc5c43)cc21	KINOMEscan		1 µM	baseline: DMSO control	remaining binding	94%
CCn1cc(C(=O)O)c(=O)c2c(N)c(F)c(NC3CCCCC3)cc21	kinase activity		0.1 µM, added: ATP at Km		inhibition	-7.5%
